Published values of several laboratories.
Protocols differ between the studies behind these lines.
Target: Muscle, skeletal receptor tyrosine-protein kinase (MUSK, Homo sapiens, UniProt O15146)

Compound | test | setting | scale | endpoint | result
CN1CCN(Cc2ccc(-c3ccc(CO[C@H]4CCC[C@@H]4NC(=O)c4cc(-c5cnn(C)c5)cnc4N)cc3)cc2)CC1 | enzyme activity, inhibitor | 0.1 µM | – | inhibition | 9%
Cc1cnc2nc1Nc1cccc(c1)COC/C=C/COCc1cc(ccc1OCCN1CCOCC1)N2 | binding | 0.1 µM | – | remaining binding | 94%
COc1c(OCCCN2CCOCC2)ccc2c1N=C(NC(=O)c1cnc(N)nc1)N1CCN=C21 | kinase activity, inhibitor | 1 µM | baseline: untreated control | remaining activity | 94%
COc1cc(Nc2nccc(-c3cnn4nc(OC)ccc34)n2)cc(C(F)(F)F)c1 | binding, competition with immobilised ligand | 1 µM | – | remaining binding | 93%
O=C=[N][Ru-4]123([n]4c5ccc(O)cc5c5c6c(c7cc(F)c[n+]1c7c54)C(=O)NC6=O)[S+]1CC[S+]2CC[S+]3CC1 (stereo not drawn) | enzyme activity | 100 nM, human enzyme, with: 10 µM ATP | baseline: untreated | remaining activity | 108%
CN1CC[C@@H](COc2cnc(C#N)cc2-c2ccn3nc(NC(=O)C4CC4)cc3c2)C1 | enzyme activity, inhibitor | 1 µM | – | inhibition | 3%
CCN1CCN(Cc2ccc(C(=O)Nc3ccc(C)c(NCc4cnc5[nH]ccc5c4OC)c3)cc2C(F)(F)F)CC1 | binding, competition with immobilised ligand | 1 µM | – | remaining binding | 3.9%
CCn1cc(C(=O)O)c(=O)c2c(N)c(F)c(NC3CCCCC3)cc21 | kinase activity | 0.1 µM, with: ATP at Km | – | inhibition | -6.4%
C=CC(=O)N1CCc2ccc(-n3c(=O)ccc4cnc5ccc(-c6cnn(C)c6)cc5c43)cc21 | KINOMEscan | 1 µM | baseline: DMSO control | remaining binding | 100%
CNC(=O)C[C@H](Cc1ccc(C#N)cc1)NC(=O)c1cc(-c2ccc(CN[C@H](C)c3ccc(C)cc3)o2)ccc1Cl | enzyme activity, inhibitor | 1 µM | – | activity vs control | 87%
C=CC(=O)Nc1cccc(-c2cnc3[nH]cc(C(=O)NC(C)(C)C)c3n2)c1 | enzyme activity, inhibitor | 0.1 µM | – | inhibition | 8%
Cc1cccc(O[C@H]2CCC[C@@H](C(C)CNCc3ccncc3)C2)c1 (relative stereo) | enzyme activity, inhibitor | 1 µM | – | inhibition | 5%
CNC(=O)C1CCN(c2cc(C)c(F)cc2NC(=O)c2ccc(-c3cc(O)ccc3C)c(C)c2)CC1 | binding, competition with immobilised ligand | 1 µM | – | remaining binding | 84%
NC(=O)[C@@H](O)C[C@H]1CCc2sc3ncnc(O[C@H]4CC[C@H](N5CCOCC5)CC4)c3c21 | enzyme activity, inhibitor | 10 µM | – | inhibition | 42%
COc1c(Cl)cccc1Nc1c(-c2ccncc2C#C[C@@]2(C)CCCN2C(=O)/C=C/CN(C)C)[nH]c2c1C(=O)NCC2 | binding, competition with immobilised ligand | 3 µM | – | remaining binding | 88%

A few entries again:
Compound | test | setting | scale | endpoint | result
NC(=O)[C@@H](O)C[C@H]1CCc2sc3ncnc(O[C@H]4CC[C@H](N5CCOCC5)CC4)c3c21 | enzyme activity, inhibitor | 10 µM | – | inhibition | 42%
